Experimental data pooled from the literature.
Numbered parts are unrelated; each lists some results of a single study.

Sample 1
Target: RNA binding protein fox-1 homolog 2, RRM domain, GST-SBP tag (RBFOX2, Homo sapiens, UniProt O43251-10, residues 100-194)
Method: RNA Bind-n-Seq
Form: RNA
Matrix: in vitro
Concentration: 365 nM
Notes: natural RNA segment, single round, ends assumed
Baseline: no-protein control
Reading: higher = stronger binding
Shared flanks, not repeated: GGGAGUUCUACAGUCCGACGAUC … UGGAAUUCUCGGGUGCCAA
Target sequence (chain): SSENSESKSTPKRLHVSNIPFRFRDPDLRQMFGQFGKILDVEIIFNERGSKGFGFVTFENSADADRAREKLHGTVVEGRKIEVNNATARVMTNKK
Oligonucleotide | RBNS enrichment (R)
UUAAACAGAUAAAGCCCUUCAUGGUCCUGGCUGAGGAAGAGUCUUGCUAGGGGGAUUCAGGGAAGACCCGUGUUACCAGCUCUUACCCUUUAUCUGGACAGCUCUCCUAC | 0.57
AGAAAUUGAAAGUGGCUACCUUUCAUGUCAAAAAUGUUGAUCUAUUAUAAAUAAAAUGUUUUUGCAUAUGUUUUUGAUUUGGUUUGGGCUAUGCAUUUUACUUUCGUUUU | 1.15
AGCGCUGCCUGGAAACUUACCUUCCCACGGCCCAGGACGCAUUUCAUCGAAUGGAAACAUGUUCUUGCAUGUGGAUGUGUGUUUCCCAGGCAGAGGGUCCUGCGCCCCCC | 1.13
AAAAGGAGAUGCCCAAUAUUCAAAGCUGCUAAAUGUUCUCUUUGCCAUAAAGACUCCGUGUAACUGUGUGAACACUUGGGAUUUUUCUCCUCUGUCCCGAGGUCGUCGUC | 0.45
UAUCUGCUGGGCAUCUGAUCUGCCUGCCACGAGGUCCAGACUCUUCUGCAUCCACCUAUGGCAUCUGGGUUUGCUGUCACCCUACUUUGUUGUGGCCUUCCUGGUGUAAG | 0.763
UCACUCCCCGGUGCCUAUGGGGUCCCGGUGUACCUAAAGGGAGAAGGACCCCAUGUGCUAGCCAGAAAUAUACUGUCUCUUGAAGGAAAGCAGGAGCUCAGACUCUUAGA | 0.268

Sample 2
Target: Prothrombin, mature alpha-thrombin (F2, Homo sapiens, UniProt P00734)
Method: aptamer microarray, sandwich
Form: DNA with 2'F-ANA
Matrix: in vitro
Concentration: 200 nM
Notes: whole 15-mer aptamer, many near background
With: Cy3 exosite-II aptamer, 400 nM
Reading: higher = stronger binding
Oligonucleotide: GGTTGGTGTGGTTGG
Modification | mean fluorescence intensity [a.u.]
2'F-ANA at 2 5 6 7 8 12 14 15 | 50.8
2'F-ANA at 1 2 3 4 10 13 14 | 50.3
2'F-ANA at 2 4 8 9 10 12 15 | 121
2'F-ANA at 6 7 10 12 13 15 | 193
2'F-ANA at 1 2 4 6 9 12 14 | 51.7
2'F-ANA at 2 3 8 9 10 12 13 14 | 301

Sample 3
Target: Histone acetyltransferase KAT6A, winged helix 2, GST fusion (KAT6A, Homo sapiens, UniProt Q92794, residues 85-181)
Method: protein binding microarray
Form: double-stranded DNA, one strand shown
Matrix: in vitro
Concentration: not given
Notes: 8-mer, flanks averaged, mean of 2 arrays, mostly near background
Baseline: not given
Reading: higher = stronger binding
Target sequence (chain): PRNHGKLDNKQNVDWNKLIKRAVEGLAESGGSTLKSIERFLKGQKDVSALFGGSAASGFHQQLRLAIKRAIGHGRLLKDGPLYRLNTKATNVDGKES
Oligonucleotide | E-score
CCTAAGCC | -0.0373
CCGTCTTA | -0.195
ATGGTCGA | -0.07
ATTCCCCA | 0.0389
ACAGTTGA | -0.169
GCTGGTTA | -0.0211
GGGTTCTA | -0.192

Other studies, line by line
Substance | target | test | test system | conditions | scale | endpoint | result
PhoQ, residues 284 288 289 292 302 303 QWGLFV | PhoP, residues 12 14 15 18 19 LHTVM (Escherichia coli, UniProt P23836) | Sort-seq, refers to: YFP reporter | E. coli | PhoQ-PhoP variant library, with: 10 µM Mg2+ | baseline: high Mg2+ state, higher = stronger signaling | fold induction | 15.3

Repeated from above (sample 3):
Oligonucleotide | E-score
CCGTCTTA | -0.195
ATGGTCGA | -0.07
